# Measured values of several laboratories.
# Parts stem from different laboratories: compare values within a part only.

# Study 1
# Target: Histone acetyltransferase KAT6A, both winged helices, GST fusion (KAT6A, Homo sapiens, UniProt Q92794, residues 1-181)
# Method: protein binding microarray
# Molecule type: double-stranded DNA, one strand shown
# Medium: in vitro
# Tested at: not given
# Setting: 8-mer, flanks averaged, mean of 2 arrays, mostly near background
# Baseline: not given
# Reading: higher = stronger binding
# Residues (chain): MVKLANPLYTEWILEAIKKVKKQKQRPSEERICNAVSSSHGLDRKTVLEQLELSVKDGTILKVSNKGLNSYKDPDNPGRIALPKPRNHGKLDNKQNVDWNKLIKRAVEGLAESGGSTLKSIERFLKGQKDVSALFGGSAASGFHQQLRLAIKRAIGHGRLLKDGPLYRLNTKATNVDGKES
Oligonucleotide,E-score
AATCCGGT,0.0604
CCTGTAGA,-0.104
ATGTAATA,0.0437
AAACTGCG,0.126
AGTTCCAA,-0.0862
ACTTTTAG,-0.0156
CCACGCAC,0.198
AGGATATC,-0.159
ACAACTTA,-0.109
AGGTACTA,-0.181
ACCCTTAC,-0.0723
GCTGAACC,0.0328
TCTCCTAA,-0.296
CCACAGGG,-0.213
AGCGGGCC,0.239
ACATCGCT,0.0683
CTAAGCAA,-0.0775
GCACCTGC,0.00546
GTGATATA,0.0172
ACGGTGAC,0.071

# Study 2
# Target: PABPC1L2, full length, GST fusion (mouse, UniProt A0ABA7IW68)
# Method: RNAcompete
# Molecule type: RNA
# Medium: in vitro
# Tested at: 20 nM
# Setting: 7-mer, probes averaged, single round
# Baseline: mean of 7-mers
# Reading: higher = stronger binding
# Residues (chain): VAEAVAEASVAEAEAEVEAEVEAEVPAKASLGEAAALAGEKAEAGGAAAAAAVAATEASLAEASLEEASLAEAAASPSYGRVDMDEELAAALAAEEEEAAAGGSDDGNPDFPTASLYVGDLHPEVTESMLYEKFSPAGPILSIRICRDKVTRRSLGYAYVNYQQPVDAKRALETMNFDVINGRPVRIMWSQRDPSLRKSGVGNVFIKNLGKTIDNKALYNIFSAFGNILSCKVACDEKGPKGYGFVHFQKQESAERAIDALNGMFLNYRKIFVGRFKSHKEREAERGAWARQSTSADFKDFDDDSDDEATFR
Oligonucleotide,7-mer Z-score
CGGCUGU,-0.0917
GCCUCUU,-0.445
GCUAUUA,-0.0681
GGAGACC,-0.0047
UAUGUAA,0.211
CGGUGUU,-0.0989
UCCGUGC,-0.146
CCAACUC,-0.296
CCGCAUG,-0.249
GUUAAGU,-0.231
GCCAGGC,-0.233
UGCUGCC,-0.122
AUUGCCC,-0.306
CUAGCUC,-0.311
GUAGCUA,-0.0899
UUGCGUA,-0.302
CACCCUA,-0.2
UCAGUUU,-0.306

# Study 3
# Target: RNA binding protein fox-1 homolog 2, RRM domain, GST-SBP tag (RBFOX2, Homo sapiens, UniProt O43251-10, residues 100-194)
# Method: RNA Bind-n-Seq
# Molecule type: RNA
# Medium: in vitro
# Tested at: 365 nM
# Setting: natural RNA segment, single round, ends assumed
# Baseline: no-protein control
# Reading: higher = stronger binding
# Shared flanks, not repeated: GGGAGUUCUACAGUCCGACGAUC … UGGAAUUCUCGGGUGCCAA
# Construct (chain): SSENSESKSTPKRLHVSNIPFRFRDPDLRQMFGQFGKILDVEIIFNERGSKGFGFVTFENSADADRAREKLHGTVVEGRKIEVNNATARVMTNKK
Oligonucleotide,RBNS enrichment (R)
CUGAGUGACUAACAUGAUGCACAUAACCAAACGGGGCCAAUGGUACAAACUUCACUCAUCAUUUGAAUACAGUAUUUACAGAGGAUGUUUGAGUUGAGAGCUUUUUUAGG,0.669
CCUAAGAAGUCUUCAAAAAUAGAUUGUACACCCGGUUUGACCUCACCCCCAUCCCACUGCUCUCUCUGAGCUGCAGCUGUAUGUAUAGCAGAUUAGGGGCUCCCUGGUUA,0.512
ACUUUUCCUCCUUUUUACAAAGAGAGGGCUGGCUUAGUUAUUUGCCAAAGCCCCUUCCAGGCCUGAAUUCCACAAGUACGAUUUACUGUAGUGUCUUAUCACUCUUUCAU,0.404
AACUCUCUCUGUGAAAAUUUAAAUUGUGUGUGUUCUAUCUUUAGAUCCCCUCCAUUUAUUUGUUUAAUUUGGGUGGUGAUUCUGAAAUGAAUACUCUCUAGGAAAUGUGC,0.399
AGUGAAAAGUUUGUAUUCUGCCUCUAAAGUUCCUCAACAAAUACUCGAGUUACACAUAUGCAUAUGUCACACUGUCACUCAGUGUGUGGAUAUGCCUAUGUCACACUGUC,0.221
AUAAGUAUUUGCUCUUAAAAUUUACUACUUAGUAGCAUGAUUAUUUUUGUUCUGUUGAUGAAGCAAAUUUGACAGAAUAUUAUUUCUCCAUAUCACACAUAUCUACACUA,0.704
GGACUGAGUGUUCGGGGCAGCCUGCUCGGCUGUAUGUUUCUCGCACGCUCACCCGCUUCAGUGCGGCUCUGUCCCUGCUGCCGCCUCCAGUCCUGAGGGAGGGGCUUGCC,0.803
GACCAAAAGUUACAUGUUUGCACCUUUCUAGUUGAAAAUAAAGUAUAUAUAUAUUUUUUAUAUGAAAGGCUUGGCUGUUCAUUCUUGUAAACUUUUCUUGGUUUUCCCGG,1.13

# Study 4
# Target: Ras GTPase-activating protein-binding protein 1, C-terminal RGG region (G3BP1, Homo sapiens, UniProt Q13283)
# Sequence of UniProt Q13283 (whole entry, looked up): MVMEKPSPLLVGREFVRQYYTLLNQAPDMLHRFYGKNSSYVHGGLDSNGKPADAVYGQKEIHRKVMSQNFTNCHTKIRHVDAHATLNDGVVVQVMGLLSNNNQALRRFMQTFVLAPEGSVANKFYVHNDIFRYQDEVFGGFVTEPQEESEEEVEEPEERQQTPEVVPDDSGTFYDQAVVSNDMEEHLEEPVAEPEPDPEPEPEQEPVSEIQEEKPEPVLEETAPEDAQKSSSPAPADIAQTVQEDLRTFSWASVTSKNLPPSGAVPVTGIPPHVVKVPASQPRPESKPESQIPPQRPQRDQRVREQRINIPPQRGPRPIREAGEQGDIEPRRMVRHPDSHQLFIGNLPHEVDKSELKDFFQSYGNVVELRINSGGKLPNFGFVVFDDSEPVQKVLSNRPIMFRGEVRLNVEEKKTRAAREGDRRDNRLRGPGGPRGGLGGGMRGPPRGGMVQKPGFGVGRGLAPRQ
# Method: RNA Bind-n-Seq
# Molecule type: RNA
# Medium: in vitro
# Tested at: 1 µM
# Setting: whole 134-nt RNA, ends assumed
# Added: 150 mM KCl
# Baseline: input library
# Reading: higher = stronger binding
# Shared flanks, not repeated: GGGAGUUCUACAGUCCGACGAUC … UGGAAUUCUCGGGUGUCAAGG
Oligonucleotide,log2 enrichment
UCCUGUGCUACACAUCGUAUGUACCGAAUCGGAAAAAAGGAAAAAAGGGAAAAAAGGGGAAAGUAUUAUGUUACGCCGUUCGGAUCUGCA,-1.73
CAAGUCCUGUGCUACACAUCGUAUGUACCGAAUCGGUUUUUUUGGAAAGGUUUGGAAAGUAUUAUGUUACGCCGUUCGGAUCUGCACUUC,-2.06
CUCAAGUCCUGUGCUACACAUCGUAUGUACCGAAUCGGGAAAGGGUGGGAGGGAAAGUAUUAUGUUACGCCGUUCGGAUCUGCACUUCCA,1.83
ACCAUGCAGGUGGGCAUCUUUGGGAAGUGGGGCAAGGGGGGGAUAGGGAGGGGCGUAACACUUUGGGAACAGGUGGUCCCAGGUCGUUUC,2.21
CCUCAAGUCCUGUGCUACACAUCGUAUGUACCGAAUCGGGGCGGCGGGGCGGGAAAGUAUUAUGUUACGCCGUUCGGAUCUGCACUUCCA,0.0832
CUCAAGUCCUGUGCUACACAUCGUAUGUACCGAAUCGGGAGGGGAGGGGAGGGAAAGUAUUAUGUUACGCCGUUCGGAUCUGCACUUCCA,2.47
CACAGACAACACGCACCCACACAGACACAGAGGGAAGGGGUUGGGAUGGGGACAGGGUGCACAGCAGGGCGGGUUAGGACCCCAGCCCCU,-1.35
UUCCUCAAGUCCUGUGCUACACAUCGUAUGUACCGAAUCGGAGGUGGUGGAAAGUAUUAUGUUACGCCGUUCGGAUCUGCACUUCCAGCA,-1.14
UGGCCCUGGUGGCAUGCGGGGAGGAAGAGGUGGCCUCAUGGAUCGUUGUGGUCCCGGUGGAAUGUUCAGAGGUGGCCGUGGUGGAGACAG,2.44

# A few entries again (study 1):
Oligonucleotide,E-score
ACATCGCT,0.0683
TCTCCTAA,-0.296
ACAACTTA,-0.109
AGTTCCAA,-0.0862
GCACCTGC,0.00546
ACCCTTAC,-0.0723
